{"data": "Assay results of several laboratories", "note": "Parts stem from different laboratories: compare values within a part only."}
{"data": "Set 1", "target": "Sal-like protein 4, full length isoform A (SALL4, Homo sapiens, UniProt Q9UJQ4, residues 1-1053)", "method": "universal PBM", "form": "double-stranded DNA, one strand shown", "matrix": "in vitro", "tested at": "600 nM", "setting": "8-mer, flanks averaged, mean of replicates", "reading": "higher = stronger binding", "UniProt Q9UJQ4, sequence (whole entry, looked up)": "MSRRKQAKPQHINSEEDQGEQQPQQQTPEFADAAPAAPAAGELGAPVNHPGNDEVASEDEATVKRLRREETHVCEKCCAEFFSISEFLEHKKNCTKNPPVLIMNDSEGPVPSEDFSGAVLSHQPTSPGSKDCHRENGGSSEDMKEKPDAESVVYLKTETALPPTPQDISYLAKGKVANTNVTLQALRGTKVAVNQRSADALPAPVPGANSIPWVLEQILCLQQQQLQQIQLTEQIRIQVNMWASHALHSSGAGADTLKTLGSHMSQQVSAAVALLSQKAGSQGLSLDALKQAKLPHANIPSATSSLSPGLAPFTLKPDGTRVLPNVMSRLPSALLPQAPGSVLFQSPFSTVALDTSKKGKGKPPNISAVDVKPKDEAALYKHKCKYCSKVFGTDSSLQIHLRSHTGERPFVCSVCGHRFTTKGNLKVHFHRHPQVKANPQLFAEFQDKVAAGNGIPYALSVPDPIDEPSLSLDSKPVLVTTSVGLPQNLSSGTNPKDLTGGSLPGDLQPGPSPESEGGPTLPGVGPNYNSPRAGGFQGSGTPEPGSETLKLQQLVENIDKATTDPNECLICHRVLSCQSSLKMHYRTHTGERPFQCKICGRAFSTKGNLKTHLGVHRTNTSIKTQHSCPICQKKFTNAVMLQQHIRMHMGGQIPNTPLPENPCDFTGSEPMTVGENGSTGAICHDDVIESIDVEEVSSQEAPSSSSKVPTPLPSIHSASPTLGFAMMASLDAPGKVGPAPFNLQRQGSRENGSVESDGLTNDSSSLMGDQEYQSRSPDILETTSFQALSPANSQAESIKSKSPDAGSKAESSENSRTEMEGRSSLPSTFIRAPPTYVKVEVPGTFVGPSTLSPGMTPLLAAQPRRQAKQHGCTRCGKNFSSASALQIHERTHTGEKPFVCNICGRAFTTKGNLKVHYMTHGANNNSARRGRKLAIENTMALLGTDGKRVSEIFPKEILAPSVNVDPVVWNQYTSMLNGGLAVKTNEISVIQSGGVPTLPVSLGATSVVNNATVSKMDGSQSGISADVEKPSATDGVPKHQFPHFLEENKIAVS"}
{"Oligonucleotide": "AGGGCATC", "E-score": -0.322}
{"Oligonucleotide": "AATCGACC", "E-score": -0.0274}
{"Oligonucleotide": "CGCTGGTC", "E-score": -0.31}
{"Oligonucleotide": "ATTACAGA", "E-score": 0.277}
{"Oligonucleotide": "AGTAGGAT", "E-score": -0.0237}
{"Oligonucleotide": "GAGAGAAA", "E-score": 0.0518}
{"Oligonucleotide": "AGAATGTC", "E-score": 0.0212}
{"Oligonucleotide": "AGCGGGAC", "E-score": -0.313}
{"Oligonucleotide": "AGATTCGC", "E-score": 0.0394}
{"Oligonucleotide": "CAAGTACC", "E-score": -0.0663}
{"Oligonucleotide": "ATTGGCTC", "E-score": 0.12}
{"Oligonucleotide": "CTGCCTTA", "E-score": -0.0836}
{"Oligonucleotide": "AAGGGTTC", "E-score": -0.147}
{"Oligonucleotide": "CTTCTTAA", "E-score": 0.181}
{"Oligonucleotide": "ACGTCAAC", "E-score": 0.0659}
{"Oligonucleotide": "CCAACGAC", "E-score": -0.165}
{"Oligonucleotide": "AAAGTGCG", "E-score": -0.0372}
{"Oligonucleotide": "AAAGCCGT", "E-score": 0.00366}
{"data": "Set 2", "target": "Centromere-binding protein 1, full length, His-tagged (CBF1, Saccharomyces cerevisiae, UniProt P17106, residues 1-351)", "method": "competition protein-binding microarray", "form": "double-stranded DNA, one strand shown", "matrix": "in vitro", "tested at": "2 µM", "setting": "whole 60-bp probe, lowest competitor level", "together with": "Pho4 competitor, 0.05 µM", "reading": "higher = stronger binding", "UniProt P17106, sequence (whole entry, looked up)": "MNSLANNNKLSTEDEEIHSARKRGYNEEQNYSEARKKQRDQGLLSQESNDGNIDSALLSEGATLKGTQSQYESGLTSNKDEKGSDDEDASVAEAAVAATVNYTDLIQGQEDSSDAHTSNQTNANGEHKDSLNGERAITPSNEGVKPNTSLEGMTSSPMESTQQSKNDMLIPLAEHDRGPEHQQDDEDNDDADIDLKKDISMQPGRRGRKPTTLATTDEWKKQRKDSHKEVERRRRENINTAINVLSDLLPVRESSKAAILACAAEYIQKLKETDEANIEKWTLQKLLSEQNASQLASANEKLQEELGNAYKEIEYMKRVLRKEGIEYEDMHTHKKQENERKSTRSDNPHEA"}
{"Oligonucleotide": "ATCAGATCAAACTGGCACGTGCCAGATTTGGTTTAGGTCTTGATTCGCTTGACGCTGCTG", "fluorescence intensity [a.u.]": 3560}
{"Oligonucleotide": "TATTTAGATGTCGATGACGTGTGGAGCGTAAAAATTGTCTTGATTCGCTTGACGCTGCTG", "fluorescence intensity [a.u.]": 87.8}
{"Oligonucleotide": "CATACCCAACCTTGCGGGGTGGGTGAAGATATTTGTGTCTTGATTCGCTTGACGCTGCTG", "fluorescence intensity [a.u.]": 70.4}
{"Oligonucleotide": "TTATAAGGTCGTTACTATCTTTATTGCAGTTAACAGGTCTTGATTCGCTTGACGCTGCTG", "fluorescence intensity [a.u.]": 75.3}
{"Oligonucleotide": "TGCGCAACAACTTGTCTGGTGGGTGTATGTCTAGAAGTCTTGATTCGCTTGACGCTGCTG", "fluorescence intensity [a.u.]": 59.5}
{"Oligonucleotide": "CATACCCAACCTTTTCACGTGATGTAAGATATTTGTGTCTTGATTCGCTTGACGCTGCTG", "fluorescence intensity [a.u.]": 3720}
{"Oligonucleotide": "TGCGCAACAACTTGGCGGGTGGGTGTATGTCTAGAAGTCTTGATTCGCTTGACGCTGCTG", "fluorescence intensity [a.u.]": 62.2}
{"Oligonucleotide": "TTCTTCTCCCAATCGCACGGCGAAGTCGCTCGACAAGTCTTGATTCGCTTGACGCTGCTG", "fluorescence intensity [a.u.]": 59.4}
{"Oligonucleotide": "GCCGGACCAGCTTGGCCCGTGGAATTGTCTATATTGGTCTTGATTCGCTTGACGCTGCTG", "fluorescence intensity [a.u.]": 45.6}
{"Oligonucleotide": "CGCTCTGTTCCTTCTCCCGTGCTGTCGCAAGCGAACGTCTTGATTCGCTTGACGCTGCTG", "fluorescence intensity [a.u.]": 81.7}
{"Oligonucleotide": "AAATTACTAAGTTGCTGCGTGGGTGACGCCGTATGAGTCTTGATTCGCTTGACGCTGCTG", "fluorescence intensity [a.u.]": 78.3}
{"Oligonucleotide": "CGGTAACATTTGAAACATGTGCCAGACTCCGAATGGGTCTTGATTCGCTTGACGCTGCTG", "fluorescence intensity [a.u.]": 214}
{"Oligonucleotide": "TTTCCAAAACTCCAACACGTGATGGATAAGATAGTCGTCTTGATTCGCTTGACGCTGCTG", "fluorescence intensity [a.u.]": 4290}
{"Oligonucleotide": "ACTGAGCATCGTCGGCACGTCTTTGCAGCATCCAATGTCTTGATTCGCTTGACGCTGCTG", "fluorescence intensity [a.u.]": 54.2}
{"Oligonucleotide": "CTTTCCCGATCTTGCTGCGTGGGTGTAGCACATTTGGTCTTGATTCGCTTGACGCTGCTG", "fluorescence intensity [a.u.]": 75.2}
{"Oligonucleotide": "AAATTACTAAGTTGCAGCGTGGGTGACGCCGTATGAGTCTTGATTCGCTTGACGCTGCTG", "fluorescence intensity [a.u.]": 71.7}
{"Oligonucleotide": "AGTTGTTAGATAAAGCACGTGTAGCATTGTACAATTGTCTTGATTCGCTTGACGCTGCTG", "fluorescence intensity [a.u.]": 1810}
{"Oligonucleotide": "TTACGGGACTTTTGTCATGCGGGCTGTCAAGCAGGCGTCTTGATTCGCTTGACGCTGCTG", "fluorescence intensity [a.u.]": 83.6}
{"Oligonucleotide": "GCTGTGATAAAGAACTTCGTGCTTTTTTGGGTTACAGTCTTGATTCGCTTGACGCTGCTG", "fluorescence intensity [a.u.]": 75.2}
{"Oligonucleotide": "TAAGTGTGTCCCACACTCGTGGCAATTTTTCTTGATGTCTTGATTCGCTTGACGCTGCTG", "fluorescence intensity [a.u.]": 84.6}
{"Oligonucleotide": "CTTCTGTAAATTTGTGTCGTGGGTGGACGCGCCCCGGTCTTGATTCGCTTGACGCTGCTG", "fluorescence intensity [a.u.]": 72.2}
{"Oligonucleotide": "GTTCGACAGTATTGGCGCATGACAAAAGACGAGCCGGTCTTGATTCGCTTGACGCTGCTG", "fluorescence intensity [a.u.]": 78}
{"Oligonucleotide": "GGGGACTCTAACCGTCACGTTGGTTTGGGTATCAAGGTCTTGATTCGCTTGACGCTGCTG", "fluorescence intensity [a.u.]": 262}
{"Oligonucleotide": "TTGTACGATTGTTTTCACGTGTTTTTACATTTTCTGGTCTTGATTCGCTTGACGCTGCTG", "fluorescence intensity [a.u.]": 1620}
{"Oligonucleotide": "CCACCCCAATTCCATCACGTCCATACCAGGGGCGTAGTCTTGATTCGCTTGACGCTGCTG", "fluorescence intensity [a.u.]": 78.9}
{"data": "Set 3", "target": "RNA binding protein fox-1 homolog 2, RRM domain, GST-SBP tag (RBFOX2, Homo sapiens, UniProt O43251-10, residues 100-194)", "method": "RNA Bind-n-Seq", "form": "RNA", "matrix": "in vitro", "tested at": "365 nM", "setting": "natural RNA segment, single round, ends assumed", "relative to": "no-protein control", "reading": "higher = stronger binding", "Residues (chain)": "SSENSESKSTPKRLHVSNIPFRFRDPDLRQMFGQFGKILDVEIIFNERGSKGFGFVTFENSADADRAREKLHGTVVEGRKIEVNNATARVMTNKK"}
{"Oligonucleotide": "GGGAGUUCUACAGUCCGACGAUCGCAGAACCAAUGGCCCCAGUCGGCUUUUGAGGUCUUGGUGAGAAGUACUGGCCACGAAAGGGUCUUGUGUAAAGUUACAUCAUCGGAGAGCGGUUUUUGAGCUUUCAAUAUGGAAUUCUCGGGUGCCAA", "RBNS enrichment (R)": 0.37}
{"Oligonucleotide": "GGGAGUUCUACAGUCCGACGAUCCAUGGGGCUGGACCUGCCCGAUGGGGGCCAGCUCACCCACGGCUACAUGUCUGACGUCAAGCGGAUAUCAGCCACGUCCAUCUUCUUCGAGUCUAUGCCCUAUAAGCUCAUGGAAUUCUCGGGUGCCAA", "RBNS enrichment (R)": 0.888}
{"Oligonucleotide": "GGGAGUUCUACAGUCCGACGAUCUACCCAGCUUUCUUUUUAAUACAAAUGUUAUUUAUAGUUUACAAUGAAUGCACUGCAUAAAAACUUUGUAGCUUCAUUAUUGUAAAACAUAUUCAAGAUCCUACAGUAAGUGGAAUUCUCGGGUGCCAA", "RBNS enrichment (R)": 0.606}
{"Oligonucleotide": "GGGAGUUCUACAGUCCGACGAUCGAAAUGUUUUCUUAAGCUUUUCCUUUCUCUUACACCUGCCAUGCCUCCCCAAAUUGGGCAUUUAAUUCAUCUUUAAACUGGUUGUUCUGUUAGUCGCUAACUUAGUAAGUUGGAAUUCUCGGGUGCCAA", "RBNS enrichment (R)": 0.391}
{"Oligonucleotide": "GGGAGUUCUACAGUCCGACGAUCCCCUCUCAGGGAUGAGACAUGGACAGGUCUCUGGAACGUUAUGGGUAAUGAGCCCCAGCAACUGUCCUCAGCCCCUCUUCCCCUCAUUUGUUCCUUCUGUCCUUCCAACAUGGAAUUCUCGGGUGCCAA", "RBNS enrichment (R)": 0.277}
{"Oligonucleotide": "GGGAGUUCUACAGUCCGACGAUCAGUUUUCCUUUGUAUUCACUUCCAUUUUUACUUAAUAACUGACUUGUUGGUGGCUCUUAUUUCUGAAUUCAAAGCUUGUGAAAAAAAAUAAAGAAAUUAAAUUGCCCGUUUGGAAUUCUCGGGUGCCAA", "RBNS enrichment (R)": 1.72}
{"Oligonucleotide": "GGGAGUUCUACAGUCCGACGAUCUAACAAAUGUCAUCAUGAUUAAGGAAAUGUCUGGCACUUUAAUGGCAAAUUAAUUGAGAAUGUAUGAAAGUCAUGAAUGUACAAGCCAAAUAAAGCUCUUUAUUAACCCUUGGAAUUCUCGGGUGCCAA", "RBNS enrichment (R)": 1.2}
{"Oligonucleotide": "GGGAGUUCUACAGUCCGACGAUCGAUGGGAUUUUUCAAAGCGGCCAACACUUCACUAAUGUUUCAAAUCAAAACCUUGAGGCUAAUAUUACACUCAGGCCACACUCAGCACUUGCCUCCUCUUGUUUACUGCCUGGAAUUCUCGGGUGCCAA", "RBNS enrichment (R)": 0.403}
{"Oligonucleotide": "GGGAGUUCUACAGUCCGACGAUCGCUCACCACCCAUCUGCACAAGCUCAGUGCUGACCAGGGACCUGGGCUUCACAUUGGGUCCUGGCCCGAGGAGCCUUGCUUCACUUACUUAGCCCCAGGCCUGGGCAGGGUGGAAUUCUCGGGUGCCAA", "RBNS enrichment (R)": 0.48}
{"Oligonucleotide": "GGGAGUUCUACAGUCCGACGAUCAACCUAUCCUCCUCACCAGAAGAGCCUGUGUUUUUCUGCUGAACACCCACUGUUCCUGAGGACUCCUGCUGGGAAGUCCCAAGGGAUAGUUCUAGCCCUUCUGCCUGUGUUGGAAUUCUCGGGUGCCAA", "RBNS enrichment (R)": 0.38}
{"Oligonucleotide": "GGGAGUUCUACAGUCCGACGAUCAGAACAAAGCUUAAGCUGCCUUUGUUAUUUUUUGAAAUUGAAAUAAAGUUUACUAAUUUUGACCAAAGUCUGUAUGUGUACUGACUGCUUAAUUGAGGCUCAGAGAGGCAUGGAAUUCUCGGGUGCCAA", "RBNS enrichment (R)": 1.63}
{"Oligonucleotide": "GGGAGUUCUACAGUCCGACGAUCUUUCUGUGAUUGUCAUUAAAAAAAAAUUUACUGUUGUGAUAAGAAUUUUAUUUGUUUUGUUUAAAGCUACAUGUGCUUUUUUCUGUAAAUAAUAAAUUUUUGUAGAUAGUUGGAAUUCUCGGGUGCCAA", "RBNS enrichment (R)": 1.07}
{"data": "Set 4", "cell line": "yeast with cyclin F-Cln2 chimera", "effect on": "cell growth", "mode": "binder", "method": "competitive growth deep sequencing", "form": "peptide", "tested at": "concentration not given", "setting": "peptide tiling library", "reading": "direction not given"}
{"Molecule": "SNFFDVIKQLFSDEKN", "growth enrichment score": 1.17}
{"Molecule": "ASVLSKPIFCFVKD", "growth enrichment score": 0.0848}
{"Molecule": "MNQELLSVGSKRRRTG", "growth enrichment score": 1.34}
{"Molecule": "IPMIAKNLMCELDE", "growth enrichment score": 1.02}
{"Molecule": "DWDTVERQEEEAPSWD", "growth enrichment score": 0.771}
{"Molecule": "PKRAKRKLYTSEISSP", "growth enrichment score": 1.48}
{"Molecule": "HPESPPRKRLKSKGSD", "growth enrichment score": 1.46}
{"Molecule": "PKNAKRNLSSEFAN", "growth enrichment score": 0.36}
{"Molecule": "TLPYDLACTGGDFVLF", "growth enrichment score": -0.271}
{"Molecule": "GTPKRCLDLSNLSSGE", "growth enrichment score": 1.35}
{"Molecule": "RKLDLEGIGR", "growth enrichment score": 3.63}
{"Molecule": "TQERKQIHCLSEDELS", "growth enrichment score": 0.406}
{"Molecule": "IFNKPECGRVQRAIFQ", "growth enrichment score": 1.69}
